{"data": "Measurements from different studies", "note": "A part holds a random share of what one study measured. “And” joins repeats or separate records; there may be more than shown.", "sequence of UniProt Q13705 (whole entry, looked up)": "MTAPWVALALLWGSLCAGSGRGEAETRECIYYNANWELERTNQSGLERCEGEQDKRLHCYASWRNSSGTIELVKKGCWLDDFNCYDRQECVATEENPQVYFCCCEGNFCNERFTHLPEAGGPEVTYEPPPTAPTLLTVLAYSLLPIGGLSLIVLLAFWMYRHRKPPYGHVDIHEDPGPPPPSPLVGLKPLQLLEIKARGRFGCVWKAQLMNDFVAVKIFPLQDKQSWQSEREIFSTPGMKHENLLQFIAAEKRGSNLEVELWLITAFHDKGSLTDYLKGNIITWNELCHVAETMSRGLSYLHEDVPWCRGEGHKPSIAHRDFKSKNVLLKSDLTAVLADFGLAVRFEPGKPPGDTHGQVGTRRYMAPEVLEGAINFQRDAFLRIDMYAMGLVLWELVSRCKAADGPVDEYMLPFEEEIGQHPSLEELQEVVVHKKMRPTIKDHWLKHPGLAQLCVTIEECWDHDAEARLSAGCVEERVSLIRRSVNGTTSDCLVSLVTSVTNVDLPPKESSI", "sequence of UniProt P42336 (whole entry, looked up)": "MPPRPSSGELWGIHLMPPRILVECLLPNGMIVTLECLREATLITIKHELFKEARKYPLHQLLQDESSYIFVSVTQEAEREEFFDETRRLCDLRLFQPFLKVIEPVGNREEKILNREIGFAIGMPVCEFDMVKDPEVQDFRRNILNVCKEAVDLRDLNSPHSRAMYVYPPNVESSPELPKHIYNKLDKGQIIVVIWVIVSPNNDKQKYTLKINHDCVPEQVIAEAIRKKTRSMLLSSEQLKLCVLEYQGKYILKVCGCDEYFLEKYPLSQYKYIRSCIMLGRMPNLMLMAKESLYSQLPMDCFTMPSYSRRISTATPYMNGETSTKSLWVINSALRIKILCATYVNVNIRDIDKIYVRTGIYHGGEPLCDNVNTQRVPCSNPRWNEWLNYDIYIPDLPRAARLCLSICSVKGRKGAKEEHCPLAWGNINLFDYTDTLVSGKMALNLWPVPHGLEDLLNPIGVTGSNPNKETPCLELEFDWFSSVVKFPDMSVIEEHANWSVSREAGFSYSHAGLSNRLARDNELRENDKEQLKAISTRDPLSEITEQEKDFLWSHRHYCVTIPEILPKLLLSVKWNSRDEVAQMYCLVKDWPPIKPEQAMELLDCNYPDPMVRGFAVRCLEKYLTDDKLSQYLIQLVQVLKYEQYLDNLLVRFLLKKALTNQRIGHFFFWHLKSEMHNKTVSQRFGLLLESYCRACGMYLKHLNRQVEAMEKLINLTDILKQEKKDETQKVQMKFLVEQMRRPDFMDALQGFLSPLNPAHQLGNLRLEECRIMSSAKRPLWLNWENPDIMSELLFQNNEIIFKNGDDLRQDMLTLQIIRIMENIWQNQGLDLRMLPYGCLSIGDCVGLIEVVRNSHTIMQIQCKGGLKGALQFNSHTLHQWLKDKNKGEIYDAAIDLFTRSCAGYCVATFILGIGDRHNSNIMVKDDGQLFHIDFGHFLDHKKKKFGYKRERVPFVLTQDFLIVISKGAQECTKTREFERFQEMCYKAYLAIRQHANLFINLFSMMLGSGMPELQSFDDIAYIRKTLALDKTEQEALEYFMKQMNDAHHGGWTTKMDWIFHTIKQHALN", "sequence of UniProt Q9UEE5 (whole entry, looked up)": "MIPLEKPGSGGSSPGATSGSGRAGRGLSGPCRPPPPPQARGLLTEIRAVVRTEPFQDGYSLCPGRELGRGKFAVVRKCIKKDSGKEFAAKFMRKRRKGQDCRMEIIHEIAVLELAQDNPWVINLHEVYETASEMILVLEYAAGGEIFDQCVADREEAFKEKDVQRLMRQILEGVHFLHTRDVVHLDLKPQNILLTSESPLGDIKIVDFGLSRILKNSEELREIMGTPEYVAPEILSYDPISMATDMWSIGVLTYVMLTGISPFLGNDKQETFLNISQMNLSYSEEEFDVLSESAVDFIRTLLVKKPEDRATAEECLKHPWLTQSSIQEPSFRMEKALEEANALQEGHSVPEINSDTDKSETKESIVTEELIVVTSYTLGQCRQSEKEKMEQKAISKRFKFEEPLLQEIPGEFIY", "sequence of UniProt Q9NRP7 (whole entry, looked up)": "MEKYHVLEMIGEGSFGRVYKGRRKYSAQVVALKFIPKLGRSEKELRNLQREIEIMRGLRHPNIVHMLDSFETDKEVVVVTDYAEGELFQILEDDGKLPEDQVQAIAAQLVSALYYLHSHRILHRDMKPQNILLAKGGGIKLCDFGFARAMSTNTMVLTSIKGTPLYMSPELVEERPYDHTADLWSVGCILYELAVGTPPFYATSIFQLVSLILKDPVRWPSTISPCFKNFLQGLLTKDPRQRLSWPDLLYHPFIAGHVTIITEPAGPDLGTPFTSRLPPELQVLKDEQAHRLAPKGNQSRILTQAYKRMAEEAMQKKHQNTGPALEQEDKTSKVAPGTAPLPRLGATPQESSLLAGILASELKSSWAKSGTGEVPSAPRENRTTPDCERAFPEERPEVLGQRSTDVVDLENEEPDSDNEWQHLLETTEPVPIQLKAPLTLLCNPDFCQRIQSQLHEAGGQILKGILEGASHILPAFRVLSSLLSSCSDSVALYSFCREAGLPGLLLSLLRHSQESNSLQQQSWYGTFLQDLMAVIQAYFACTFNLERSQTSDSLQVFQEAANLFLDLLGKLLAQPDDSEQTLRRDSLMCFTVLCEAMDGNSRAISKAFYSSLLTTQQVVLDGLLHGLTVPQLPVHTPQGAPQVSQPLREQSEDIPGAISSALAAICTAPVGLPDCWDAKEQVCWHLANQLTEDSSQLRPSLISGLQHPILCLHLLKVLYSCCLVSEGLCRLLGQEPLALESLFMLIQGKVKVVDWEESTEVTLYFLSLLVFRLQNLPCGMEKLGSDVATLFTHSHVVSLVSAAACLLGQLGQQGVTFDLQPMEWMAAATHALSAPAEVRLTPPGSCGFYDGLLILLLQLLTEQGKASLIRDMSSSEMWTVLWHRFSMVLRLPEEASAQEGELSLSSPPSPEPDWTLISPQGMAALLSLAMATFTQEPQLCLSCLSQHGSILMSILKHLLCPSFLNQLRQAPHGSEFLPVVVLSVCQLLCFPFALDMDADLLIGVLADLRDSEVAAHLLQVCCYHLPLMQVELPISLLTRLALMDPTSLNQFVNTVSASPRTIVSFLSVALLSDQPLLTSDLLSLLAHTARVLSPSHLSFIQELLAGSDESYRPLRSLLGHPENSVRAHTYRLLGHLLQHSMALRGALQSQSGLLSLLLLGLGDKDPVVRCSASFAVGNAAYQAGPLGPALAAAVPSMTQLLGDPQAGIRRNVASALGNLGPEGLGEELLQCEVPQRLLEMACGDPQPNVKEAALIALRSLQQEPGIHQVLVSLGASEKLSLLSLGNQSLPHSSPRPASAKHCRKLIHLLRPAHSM", "sequence of UniProt P51617 (whole entry, looked up)": "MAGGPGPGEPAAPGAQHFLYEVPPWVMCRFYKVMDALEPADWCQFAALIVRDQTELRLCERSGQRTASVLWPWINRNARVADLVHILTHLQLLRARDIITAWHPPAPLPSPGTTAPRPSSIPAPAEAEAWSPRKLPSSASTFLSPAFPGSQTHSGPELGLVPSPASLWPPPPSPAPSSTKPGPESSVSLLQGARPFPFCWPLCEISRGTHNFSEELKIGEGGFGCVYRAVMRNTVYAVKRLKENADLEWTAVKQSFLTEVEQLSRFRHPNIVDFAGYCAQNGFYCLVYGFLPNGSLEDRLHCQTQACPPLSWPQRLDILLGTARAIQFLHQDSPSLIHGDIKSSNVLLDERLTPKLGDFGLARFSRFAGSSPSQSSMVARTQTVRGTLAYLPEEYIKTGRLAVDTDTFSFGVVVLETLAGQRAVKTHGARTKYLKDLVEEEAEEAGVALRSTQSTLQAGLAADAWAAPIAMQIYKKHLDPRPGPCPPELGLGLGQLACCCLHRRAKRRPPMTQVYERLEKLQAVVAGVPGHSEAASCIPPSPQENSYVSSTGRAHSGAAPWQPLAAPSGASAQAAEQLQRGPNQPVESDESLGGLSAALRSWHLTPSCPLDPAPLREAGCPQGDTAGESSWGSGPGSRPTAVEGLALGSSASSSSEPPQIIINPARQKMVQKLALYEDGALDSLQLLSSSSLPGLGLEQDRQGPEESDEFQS", "sequence of UniProt Q9P1W9 (whole entry, looked up)": "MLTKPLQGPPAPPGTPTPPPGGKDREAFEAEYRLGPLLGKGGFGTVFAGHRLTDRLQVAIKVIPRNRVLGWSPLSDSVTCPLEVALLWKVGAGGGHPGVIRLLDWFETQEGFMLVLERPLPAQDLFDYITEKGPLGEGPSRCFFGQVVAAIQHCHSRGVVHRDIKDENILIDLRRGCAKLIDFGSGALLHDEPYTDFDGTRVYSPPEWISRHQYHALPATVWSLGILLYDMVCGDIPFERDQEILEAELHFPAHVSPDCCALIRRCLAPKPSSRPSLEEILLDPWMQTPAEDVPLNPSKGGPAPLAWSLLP", "sequence of UniProt O15264 (whole entry, looked up)": "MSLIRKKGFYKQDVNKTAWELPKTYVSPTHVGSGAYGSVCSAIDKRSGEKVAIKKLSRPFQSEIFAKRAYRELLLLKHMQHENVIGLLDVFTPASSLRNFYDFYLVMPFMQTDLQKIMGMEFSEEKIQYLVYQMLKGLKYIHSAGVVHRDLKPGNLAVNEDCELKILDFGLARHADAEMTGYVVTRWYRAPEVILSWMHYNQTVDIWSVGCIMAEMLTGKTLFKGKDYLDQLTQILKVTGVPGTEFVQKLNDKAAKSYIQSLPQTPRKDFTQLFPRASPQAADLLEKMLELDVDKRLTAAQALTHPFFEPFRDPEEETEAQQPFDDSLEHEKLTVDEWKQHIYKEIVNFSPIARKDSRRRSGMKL"}
{"data": "Series 1", "target": "Serine/threonine-protein kinase 16 (STK16, Homo sapiens, UniProt O75716)", "read-out": "enzyme activity", "mode": "inhibitor", "tested at": "0.5 µM", "reference": "control", "sequence of UniProt O75716 (whole entry, looked up)": "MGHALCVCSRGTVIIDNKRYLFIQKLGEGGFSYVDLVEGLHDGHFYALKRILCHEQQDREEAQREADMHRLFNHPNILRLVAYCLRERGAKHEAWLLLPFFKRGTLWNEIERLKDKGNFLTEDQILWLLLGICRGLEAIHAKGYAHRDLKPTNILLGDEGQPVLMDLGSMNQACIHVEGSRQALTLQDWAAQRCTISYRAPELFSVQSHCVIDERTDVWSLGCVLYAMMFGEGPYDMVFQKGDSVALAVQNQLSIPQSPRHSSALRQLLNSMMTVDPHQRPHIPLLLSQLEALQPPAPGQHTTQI"}
{"Structure (SMILES)": "CCN(CC)CCCCN1c2ccccc2Oc2ccc(Cl)cc21", "remaining activity [%]": 95.2}
{"Structure (SMILES)": "O=C1NC(=O)/C(=C/c2ccc3c(c2)OC(F)(F)O3)S1", "remaining activity [%]": 91}
{"Structure (SMILES)": "CCCCc1c(-c2ccc(O)cc2)[nH]c2nccnc12", "remaining activity [%]": 55.4}
{"Structure (SMILES)": "N#C/C(=C(/N)SC1C=CC=CC1)c1cccc(C(O)c2ccncc2)c1 (stereo not drawn)", "remaining activity [%]": 99.6}
{"Structure (SMILES)": "FC(F)(F)c1ccc(/C=C/c2nc(COc3ccc(CCCCn4ccnn4)cc3)co2)cc1", "remaining activity [%]": 104}
{"Structure (SMILES)": "C[C@@H](N)[C@H]1CC[C@H](C(=O)Nc2ccncc2)CC1", "remaining activity [%]": 98.1}
{"Structure (SMILES)": "COc1cc2c(N3CCN(C(=O)Nc4ccc(OC(C)C)cc4)CC3)ncnc2cc1OCCCN1CCCCC1", "remaining activity [%]": 103}
{"data": "Series 2", "host": "mouse", "sample": "microsomes or S9", "tested at": "2 µM", "time": "0.5 h"}
{"Compound": "C=CCn1cc(Cl)cc/c1=N\\C=C(/C#N)C(=O)OCC", "remaining compound [%]": 24.1}
{"Compound": "Cc1ccc(N2CC(c3nc(-c4cc5c(C)nn(-c6ccccc6)c5s4)no3)CC2=O)cc1 (stereo not drawn)", "remaining compound [%]": "> 100"}
{"Compound": "CCN1C(=O)C(C)(C)c2cc(S(=O)(=O)Nc3cnn(CC)c3)ccc21", "remaining compound [%]": 39.5}
{"Compound": "Cc1cc(OC2CN(S(=O)(=O)N(C)C)C2)cc(=O)n1C", "remaining compound [%]": 60}
{"Compound": "CN(C)CCN(Cc1ccncc1)Cc1c(F)cccc1Cl", "remaining compound [%]": 40.5}
{"Compound": "Cn1c2c(c3cc(O)ccc31)C=NC(Cc1ccccc1)C(=O)N2 (stereo not drawn)", "remaining compound [%]": 86.8}
{"Compound": "CC(C)(C)c1ccccc1NC(=O)c1ccc(NC(=O)Nc2ccccc2)s1", "remaining compound [%]": 19}
{"data": "Series 3", "Compound": "O=C(N1CCS(=O)(=O)CC1)N1C[C@H](c2ccc(OC(F)(F)F)cc2)C[C@H](c2nc(C3CC3)no2)C1", "method": "competition with immobilised ligand", "tested at": "1 µM"}
{"target": "PRKCH (Homo sapiens, UniProt P24723)", "read-out": "cell-free assay", "remaining binding [%]": 100}
{"target": "MELK (Homo sapiens, UniProt Q14680)", "read-out": "cell-free assay", "remaining binding [%]": 100}
{"target": "PIM2 (Homo sapiens, UniProt Q9P1W9)", "read-out": "cell-free assay", "remaining binding [%]": 100}
{"target": "ACVR2B (Homo sapiens, UniProt Q13705)", "read-out": "binding", "remaining binding [%]": 86}
{"target": "STK17A (Homo sapiens, UniProt Q9UEE5)", "read-out": "cell-free assay", "remaining binding [%]": 100}
{"target": "PIK3CA (Homo sapiens, UniProt P42336)", "read-out": "cell-free assay", "remaining binding [%]": 100}
{"target": "MAPK13 (Homo sapiens, UniProt O15264)", "read-out": "cell-free assay", "remaining binding [%]": 100}
{"target": "PIP4K2B (Homo sapiens, UniProt P78356)", "read-out": "cell-free assay", "remaining binding [%]": 73}
{"target": "STK36 (Homo sapiens, UniProt Q9NRP7)", "read-out": "cell-free assay", "remaining binding [%]": 100}
{"target": "IRAK1 (Homo sapiens, UniProt P51617)", "read-out": "cell-free assay", "remaining binding [%]": 92}
{"target": "EPHA1 (Homo sapiens, UniProt P21709)", "read-out": "cell-free assay", "remaining binding [%]": 100}
{"target": "LIM domain kinase 1 (LIMK1, Homo sapiens, UniProt P53667)", "read-out": "cell-free assay", "remaining binding [%]": 100}
{"target": "ALK (Homo sapiens, UniProt Q9UM73)", "read-out": "cell-free assay", "remaining binding [%]": 100}
{"target": "EGFR (Homo sapiens, UniProt P00533, A750P/del747-749)", "read-out": "cell-free assay", "remaining binding [%]": 100}
{"target": "STK32A (Homo sapiens, UniProt Q8WU08)", "read-out": "cell-free assay", "remaining binding [%]": 89}
{"target": "SNRK (Homo sapiens, UniProt Q9NRH2)", "read-out": "cell-free assay", "remaining binding [%]": 93}
{"data": "Series 4", "cell line": "mouse MPNST tumor cells", "method": "high-content immunofluorescence imaging", "measured": "nuclear SOX9", "tested at": "10 µM", "time": "12 h", "notes": "mean of 2 replicates", "reference": "DMSO control", "direction": "higher = more nuclear SOX9"}
{"Compound": "O=C(O)c1ccc(C=C2SC(=S)N(c3cccc(C(F)(F)F)c3)C2=O)cc1", "nuclear SOX9 intensity": "98.4 % of DMSO"}
{"Compound": "C[N+]1(CC2CCCCCC2)CCC(NC(=O)C2c3cc(Cl)ccc3Oc3ccc(Cl)cc32)CC1 (stereo not drawn)", "nuclear SOX9 intensity": "83.2 % of DMSO"}
{"Compound": "CCN[C@H]1C[C@H](C)S(=O)(=O)c2sc(S(N)(=O)=O)cc21", "nuclear SOX9 intensity": "98.1 % of DMSO"}
{"Compound": "COC(=O)C1=C(C)NC(C)=C(C(=O)OCC(C)C)C1c1ccccc1[N+](=O)[O-] (stereo not drawn)", "nuclear SOX9 intensity": "113 % of DMSO and 109 % of DMSO"}
{"Compound": "Nc1ccc(S(=O)(=O)c2ccc(N)cc2)cc1", "nuclear SOX9 intensity": "104 % of DMSO"}
{"data": "Other studies, line by line"}
{"SMILES": "CCCN1C(=O)[C@H](CC(C)C)NC(=O)[C@@H](N(C)C(=O)[C@H](CC2CCC2)NC(=O)[C@@H]2C[C@@H](F)CN2C(=O)[C@@](C)(O)C(F)(F)F)CCCCNC(=O)C2(CC2)NC(=O)[C@@H]1Cc1cc(Cl)ccc1Cl", "assay": "immunohistochemistry", "system": "mice, NCI-H69 xenograft, tumour", "conditions": "intravenous, 100 mg/kg once daily, 18 h", "measurement": "phospho-KNL1 positive cells", "result": "5% and 7.33% and 5.5%"}
{"note": "Repeated from above (series 1):"}
{"Structure (SMILES)": "FC(F)(F)c1ccc(/C=C/c2nc(COc3ccc(CCCCn4ccnn4)cc3)co2)cc1", "remaining activity [%]": 104}
{"Structure (SMILES)": "C[C@@H](N)[C@H]1CC[C@H](C(=O)Nc2ccncc2)CC1", "remaining activity [%]": 98.1}
{"Structure (SMILES)": "COc1cc2c(N3CCN(C(=O)Nc4ccc(OC(C)C)cc4)CC3)ncnc2cc1OCCCN1CCCCC1", "remaining activity [%]": 103}
